# Experimental data of several laboratories.
# Protocols differ between the studies behind these lines. Numbers after ± are the reported error.
SMILES,assay,system,conditions,scale,quantity,value
O=C(Nc1nc2cccc(-c3ccc(CN4CCS(=O)(=O)CC4)cc3)n2n1)C1CC1,refers to: somnolence,rheumatoid arthritis patients,"oral, 200 mg once daily, 4 weeks, any relatedness",,treatment-emergent adverse events,8.3%
COC(=O)Nc1cccc(NS(=O)(=O)c2cc(Cl)cc(Cl)c2O)c1C,"colloidal aggregate formation, dynamic light scattering",50 mM potassium phosphate buffer,"200 µM, pH 7.0, 1% DMSO",higher = more aggregation,DLS scattered light intensity,727000 counts/s
Cc1c(-c2ccc(N3CCc4cccc(C(=O)Nc5nc6ccccc6s5)c4C3)nc2C(=O)O)cnn1CC12CC3(C)CC(C)(C1)CC(OCCNCC[C@H](O)CO)(C3)C2,,"beagle dog, anaesthetised","intravenous infusion, 0.3 mg/kg/min, 60 min",baseline: vehicle,PR interval change,-4 ms
CCOc1c([C@H](C)n2nc(C)c3c(N)ncnc32)cc(Cl)c(F)c1[C@@H]1CNC(=O)C1,refers to: ΔQTcF ≤ 30 ms,previously treated B-cell malignancy,"oral, dose not given, all doses, overall population",,share of ECG observations,97%
Nc1ccn([C@@H]2O[C@H](CO)[C@@H](O)C2(F)F)c(=O)n1,refers to: dFdU,"human, plasma","intravenous, 1000 mg/m^2, added: after paricalcitol",,"Tmax, mean",1.2 h
c1ccc(-c2nc(N3CCC(c4ccccn4)C3)c3ccccc3n2)nc1 (stereo not drawn),,"female Balb/c mice, blood","intravenous, 2 mg/kg, 0.25 h, mean, added: 1-aminobenzotriazole co-dosed",,blood concentration,2280 ng/mL
CC(C(=O)NCC(=O)NCC(CNC(=O)CNC(=O)C(C)N1CCN(CC(=O)[O-])CCN(CC(=O)[O-])CCN(CC(=O)[O-])CC1)(CNC(=O)CNC(=O)C(C)N1CCN(CC(=O)[O-])CCN(CC(=O)[O-])CCN(CC(=O)[O-])CC1)CNC(=O)CNC(=O)C(C)N1CCN(CC(=O)[O-])CCN(CC(=O)[O-])CCN(CC(=O)[O-])CC1)N1CCN(CC(=O)[O-])CCN(CC(=O)[O-])CCN(CC(=O)[O-])CC1.[Gd+3].[Gd+3].[Gd+3].[Gd+3] (stereo not drawn),HPLC-ICP-MS,"cynomolgus monkey, plasma",up to 8 h,baseline: total Gd,intact compound share,> 99%
Cc1nc(-c2ccc(OCC(C)C)c(C#N)c2)sc1C(=O)O,,healthy Chinese subjects,"oral, 40 mg, fed, single dose",,subjects with serious adverse events,0%
CC(C)(C(=O)N1CCOc2c(C#N)cncc2C1)C(F)F,refers to: ALT increased,human,"oral, 20 mg once daily, 14 days, multiple ascending dose",,subjects with adverse event,0%
COC(=O)C(Cc1cccc(OC)c1C)NC(=O)CNCc1ccccc1 (stereo not drawn),,beagle dog,1 µM,,half-life,> 3 h
C[C@H]1[C@H]2N(C(=O)CN(C)N2C(=O)NCc2ccccc2)[C@@H](Cc2ccc(OP(=O)(O)O)cc2)C(=O)N1Cc1cccc2cccnc12,,"patients, plasma","intravenous infusion, 140 mg/m2 over 4 h, median",,AUC(0-24 h),3360 ng·h/mL
COc1ccnc(C(=O)O)c1O,soil adsorption,soil,"pH 6.9, organic carbon 0.8 %",,Freundlich coefficient KF,208 mL/g
O=C(CCCN1CC=C(n2c(=O)[nH]c3ccccc32)CC1)c1ccc(F)cc1,,"male Hartley guinea pig, anaesthetized","intravenous infusion, 0.3 mg/kg, 10 min infusion, post-infusion",,QTc interval,385 ± 0.6 ms
Cc1nc2cccc(OCC(C)(C)C(=O)NC(C)C)c2c(N)c1C(=O)O,,"Sprague-Dawley rat, female, plasma","oral, 10 mg/kg, day 7 over day 1, 7-day repeated dosing",baseline: day 7 over day 1,Cmax ratio,0.96 ± 0.3
O=C1CCCN1Cc1ccc(NS(=O)(=O)c2cccc(Cl)c2O)cc1,"colloidal aggregate formation, dynamic light scattering",50 mM potassium phosphate buffer,"200 µM, pH 7.0, 1% DMSO",higher = more aggregation,DLS scattered light intensity,448000 counts/s
CN1C[C@H](COc2nccc3c(NCc4ccco4)cc(Cl)nc23)OC1=O,,"rabbit NZW female, isolated Langendorff heart","10 µM, 15 min",,QTc interval,266 ms
CCO[C@H]1CCN(Cc2c(OC)cc(C)c3[nH]ccc23)[C@H](c2ccc(C(=O)O)cc2)C1,,"PNH patients, active haemolysis","oral, 50 mg, 4 weeks, treatment",,incidence of dry throat,0%
CC(C)[C@@H](CS(=O)(=O)C(C)C)N1C(=O)[C@@](C)(CC(=O)O)C[C@H](c2cccc(Cl)c2)[C@H]1c1ccc(Cl)cc1,,"FVB Abcb1a/b-/- mice, plasma","intravenous, 20 mg/kg",,volume of distribution,0.628 L/kg
CNC(=O)c1cccc(-c2ccc([C@@H](O)[C@H]3O[C@H](CO)[C@@H](O)[C@H](O)[C@@H]3O)c(C)c2)c1,,"male Sprague-Dawley rat, plasma","oral, 10 mg/kg, group mean",,terminal half-life,3.53 h
COc1ccc2c(c1)CCc1c(C(=O)NCCc3nc4cc(C)ccc4[nH]3)n[nH]c1-2,haemolysis,sheep erythrocytes,"1 h, pH 7.5",,HC50,> 128 µg/mL
C[C@]1(Cn2ccnn2)[C@H](C(=O)O)N2C(=O)C[C@H]2S1(=O)=O,,human whole blood,"concentration not given, 48 h, 4 °C",,deviation from nominal concentration,4.1%
COc1cccc(OC)c1-c1cc(C(=O)NC2(C(=O)O)C3CC4CC(C3)CC2C4)nn1-c1ccc(C(=O)N(C)CCCN(C)CCCN(C)C(=O)CN2CCN(CC(=O)[O-])CCN(CC(=O)[O-])CCN(CC(=O)[O-])CC2)cc1C(C)C.[177Lu+3] (stereo not drawn),,mouse HT-29 xenograft,"4 h, biodistribution",baseline: tumour over large intestine,tumour-to-large intestine ratio,5.86
Cc1ccc(Sc2ccccc2N2CCNCC2)c(C)c1,refers to: haemoglobin decreased,healthy adult men,"oral, 20 mg daily, 12 days",,participants with TEAE,0%
O=C(COc1ccc(Cl)cc1)NC12CC(c3nnc([C@H]4C[C@@H](OC(F)(F)F)C4)o3)(C1)C2,,human both sexes,"oral, 100 mg once daily, 14 days",,participants maximum mild TEAE,100%
OC[C@H]1O[C@@H](c2ccc(Cl)c(Cc3ccc(O[C@H]4CCOC4)cc3)c2)[C@H](O)[C@@H](O)[C@@H]1O,population PK model,"human, plasma",oral,"baseline: non-Asian patients, higher in Asian",difference in ka,23%
Cc1cc(-c2nnc(N)nc2-c2ccc(F)cc2)cc(Cl)n1,,"human, IO-naive mCRPC","oral, dose not given, phase Ia/Ib, any grade",,patients with treatment-related AE,80%
CC[C@H](C)[C@H](NC(=O)[C@H](Cc1ccccc1)NC(=O)[C@H](CCC(=O)O)NC(=O)[C@H](CCCCNC(=O)COCCOCCNC(=O)COCCOCCNC(=O)CC[C@H](NC(=O)CCCCCCCCCCCCCCCCC(=O)O)C(=O)O)NC(=O)[C@H](C)NC(=O)[C@H](C)NC(=O)[C@H](CCC(N)=O)NC(=O)CNC(=O)[C@H](CCC(=O)O)NC(=O)[C@H](CC(C)C)NC(=O)[C@H](Cc1ccc(O)cc1)NC(=O)[C@H](CO)NC(=O)[C@H](CO)NC(=O)[C@@H](NC(=O)[C@H](CC(=O)O)NC(=O)[C@H](CO)NC(=O)[C@@H](NC(=O)[C@H](Cc1ccccc1)NC(=O)[C@@H](NC(=O)CNC(=O)[C@H](CCC(=O)O)NC(=O)C(C)(C)NC(=O)[C@@H](N)Cc1cnc[nH]1)[C@@H](C)O)[C@@H](C)O)C(C)C)C(=O)N[C@@H](C)C(=O)N[C@@H](Cc1c[nH]c2ccccc12)C(=O)N[C@@H](CC(C)C)C(=O)N[C@H](C(=O)N[C@@H](CCCNC(=N)N)C(=O)NCC(=O)N[C@@H](CCCNC(=N)N)C(=O)NCC(=O)O)C(C)C,hypoglycaemic clamp,type 2 diabetes patients,"dose not given, from glucose nadir to recovery",,diastolic blood pressure change,1.7 mmHg
O=C(O)CCCCCCCCCCCCCCC(=O)O,,"human, plasma",endogenous baseline diurnal,,daily mean concentration,169 ± 23 nM
Cl.[2H]C([2H])([2H])CC(=O)c1cnc(NC(=O)C2CC2)cc1Nc1cccc(-c2ncn(C([2H])([2H])[2H])n2)c1OC,geometric mean,human,"oral, 10 mg single dose, fasted, liquid",,AUC(0-inf),816 ng·h/mL
CCCCOc1ccc([C@H]2CC[C@H](CCC)CC2)c(F)c1F,refers to: compound,"human pregnant women, female fetuses, maternal serum","dose not given, paired maternal-cord samples, mean",,concentration,8.57 ng/mL
CC(CC(C)(C)c1ccccc1)NS(=O)(=O)c1cccc(Cl)c1O (stereo not drawn),"colloidal aggregate formation, dynamic light scattering",50 mM potassium phosphate buffer,"200 µM, pH 7.0, 1% DMSO",higher = more aggregation,DLS scattered light intensity,831000 counts/s
N#Cc1ccc2c(c1)[C@H]1CCCN(C(=O)c3ccc4[nH]cnc4c3)[C@H]1C2,,human females,"360 mg, day 15",,total testosterone level,0.9 nmol/L
C=CCN1CC(=O)N2[C@@H](Cc3ccc(O)cc3F)C(=O)N(Cc3cccc(N4CC(N5CCN(CC)CC5)C4)n3)C[C@@H]2N1C(=O)NCc1ccccc1,,advanced solid tumour patients,"oral, 80 mg twice daily, grade ≥3, dose-escalation",,treatment-related AST increased,0%
O=C1NCCc2ccc(CNS(=O)(=O)c3cc(Cl)cc(Cl)c3O)cc21,"colloidal aggregate formation, dynamic light scattering",50 mM potassium phosphate buffer,"200 µM, pH 7.0, 1% DMSO",higher = more aggregation,DLS scattered light intensity,234000 counts/s
CC(=O)Oc1ccccc1C(=O)O,,"male Hartley guinea pig, anaesthetized","intravenous infusion, 3 mg/kg, 10 min infusion, post-infusion",,QTc interval,362 ± 0.2 ms
CCc1cc(C(=O)NC)c2nccc(N3CCc4c(cc(Cn5ccnc5)cc4-c4cn(C)nc4C(F)(F)F)C3=O)c2c1,,Sprague Dawley rats,"oral, 100 mg/kg twice daily, 7 days",,blood CHCM,314 ± 6.14 g/L
Cc1ccc(C(=O)N(CCCN)C(c2nc3snc(C)c3c(=O)n2Cc2ccccc2)C(C)C)cc1 (stereo not drawn),stomatitis grade ≥3 (CTCAE),human patients,"intravenous, 16 mg/day",,patients with adverse event,14%
CO[C@H]1C[C@@H]2CC[C@@H](C)[C@@](O)(O2)C(=O)C(=O)N2CCCC[C@H]2C(=O)O[C@H]([C@H](C)C[C@@H]2CC[C@@H](OC(=O)NCCOCCOCCOCCOCCOCCOCCOCCOCCC(=O)N3CCc4cc(Cn5nc(-c6ccc7oc(N)nc7c6)c6c(N)ncnc65)ccc4C3)[C@H](OC)C2)C[C@@H](O)[C@H](C)/C=C(\C)[C@@H](O)[C@@H](OC)C(=O)[C@H](C)C[C@H](C)/C=C/C=C/C=C/1C,,"human patients, plasma","intravenous, 16 mg, cycle 1",baseline: day 15 over day 1,AUClast ratio,1.3
COc1cc(Nc2ncc3c(n2)-c2ccc(Cl)cc2C(c2c(F)cccc2OC)=NC3)ccc1C(=O)O,"refers to: Dysgeusia, grade 1","cancer patients, phase 1/2","oral, dose not given, added: pembrolizumab",,patients with adverse event,8%

# A few entries again:
SMILES,assay,system,conditions,scale,quantity,value
N#Cc1ccc2c(c1)[C@H]1CCCN(C(=O)c3ccc4[nH]cnc4c3)[C@H]1C2,,human females,"360 mg, day 15",,total testosterone level,0.9 nmol/L
O=C(Nc1nc2cccc(-c3ccc(CN4CCS(=O)(=O)CC4)cc3)n2n1)C1CC1,refers to: somnolence,rheumatoid arthritis patients,"oral, 200 mg once daily, 4 weeks, any relatedness",,treatment-emergent adverse events,8.3%
CNC(=O)c1cccc(-c2ccc([C@@H](O)[C@H]3O[C@H](CO)[C@@H](O)[C@H](O)[C@@H]3O)c(C)c2)c1,,"male Sprague-Dawley rat, plasma","oral, 10 mg/kg, group mean",,terminal half-life,3.53 h
CC(C)(C(=O)N1CCOc2c(C#N)cncc2C1)C(F)F,refers to: ALT increased,human,"oral, 20 mg once daily, 14 days, multiple ascending dose",,subjects with adverse event,0%
Cc1ccc(C(=O)N(CCCN)C(c2nc3snc(C)c3c(=O)n2Cc2ccccc2)C(C)C)cc1 (stereo not drawn),stomatitis grade ≥3 (CTCAE),human patients,"intravenous, 16 mg/day",,patients with adverse event,14%
